Experimental data from different studies.
Numbered parts are unrelated; each lists some results of a single study.

Series 1 — method: protein-binding microarray; molecule type: double-stranded DNA, one strand shown; medium: in vitro; concentration: not given; direction: higher = stronger binding; measurement: E-score
Target: TATA-box-binding protein 1 (TBP1, Arabidopsis thaliana, UniProt P28147, residues 1-200, full length assumed)
Notes: k-mer, scored over probes, only values ≥0.25
Residues (chain): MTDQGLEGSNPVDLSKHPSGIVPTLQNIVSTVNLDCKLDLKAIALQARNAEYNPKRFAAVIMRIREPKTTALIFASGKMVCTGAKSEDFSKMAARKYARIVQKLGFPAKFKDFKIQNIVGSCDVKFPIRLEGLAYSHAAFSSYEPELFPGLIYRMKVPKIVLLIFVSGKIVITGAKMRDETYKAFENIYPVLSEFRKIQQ
CTTTATA: 0.464
GGTTTTA: 0.316
GGCTTAA: 0.312
AAAAACT: 0.339
TATAAGA: 0.44
AAATATT: 0.433
AATAATT: 0.362
GTTATTA: 0.31
GTAGTTA: 0.274
ATATTCA: 0.36
ATATTCC: 0.32
GTGTATA: 0.346
CTAATAA: 0.306
GGATTTA: 0.281
CCTTAAG: 0.25
GATTATA: 0.413
AGTTAAA: 0.38
ATTATTG: 0.285
TACTAAA: 0.272
ATACCTA: 0.311
TAAAGGA: 0.335
TCATAAA: 0.257
ATATCCA: 0.324
CTTAATA: 0.346
AATAAGC: 0.27

Series 2 — method: RNAcompete; molecule type: RNA; medium: in vitro; concentration: 20 nM; notes: 7-mer, probes averaged, single round; relative to: mean of 7-mers; direction: higher = stronger binding; measurement: 7-mer Z-score
Target: PABPC1L2, full length, GST fusion (mouse, UniProt A0ABA7IW68)
Residues (chain): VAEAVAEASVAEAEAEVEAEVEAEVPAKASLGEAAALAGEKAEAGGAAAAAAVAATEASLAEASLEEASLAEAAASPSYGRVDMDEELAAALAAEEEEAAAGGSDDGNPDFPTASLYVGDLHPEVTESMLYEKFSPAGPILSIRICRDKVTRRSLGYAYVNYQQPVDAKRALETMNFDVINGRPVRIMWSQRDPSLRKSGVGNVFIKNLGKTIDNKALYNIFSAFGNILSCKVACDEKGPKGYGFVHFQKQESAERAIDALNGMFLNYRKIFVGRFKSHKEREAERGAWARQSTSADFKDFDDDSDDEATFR
CUUUUUU: -0.0681
GCUUUAG: -0.0518
UAUAGGC: -0.0554
GCGGUUG: -0.0971
UUGCAAG: -0.142
UUGGAUC: -0.18
AGCGGAU: -0.0591
ACAACAG: 0.294
CGUGUUC: -0.421
CUAACGG: -0.177
UACCAGU: -0.237
GACUAAA: 1.17
GAGUGCU: -0.15
ACACUGA: 0.0261
AUCAAUA: 0.0189
GAUCGGG: -0.0101
AGCACGC: -0.112
GAGUGGC: 0.066
UUAUGAG: -0.0953
CUCGGAA: -0.0863
AUGAUCA: -0.00289
ACGACCG: -0.0844
ACGGACU: 0.0424
CUGUGAA: -0.0609
GUUGACG: -0.159

Series 3 — method: RNA Bind-n-Seq; molecule type: RNA; medium: in vitro; concentration: 365 nM; relative to: no-protein control; direction: higher = stronger binding; measurement: RBNS enrichment (R)
Target: RNA binding protein fox-1 homolog 2, RRM domain, GST-SBP tag (RBFOX2, Homo sapiens, UniProt O43251-10, residues 100-194)
Notes: natural RNA segment, single round, ends assumed
Constant ends, left off below: GGGAGUUCUACAGUCCGACGAUC … UGGAAUUCUCGGGUGCCAA
Residues (chain): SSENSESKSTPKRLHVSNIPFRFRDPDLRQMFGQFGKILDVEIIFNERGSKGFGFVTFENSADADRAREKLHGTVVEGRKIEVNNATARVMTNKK
CCAUGCAACAACCACCACCUUAUACAUCACUUCCUGUUUUAAGCAGCUCUAAAACAUAGACUGAAGAUUUAUUUUUAAUAUGUUGACUUUAUUUCUGAGCAAAGCAUCGG: 0.921
UAUCCACAGUCUCUGCCAGUUGGUUUUAUUUGGAGGUUUGUGGGCUUUUUUUAAAAAAAAAAAGUCCUCAAAUCAGGAAGAAACAUCAAAGACUAUGUCCUAGUGGAGGG: 0.459
UGCGGCUAGCUGAUUUUGGGGUACUUCAUAGGAACGAGCUGUCUGGAGCACUCACAGGACUCACCCGGGUACGAAGAUUCCAACAGGAUGAUGCUCACAUAUUCUGUGCC: 0.329
GCUGUCUUGGAGGUAAGUGGAAGUAGUGGGCCCUGCUUCUUUUCUUUGUAGCCUUCCGGCUACAUCCCCUUCCCAGUUGUGGACCAAUGCAUCUCUAGAGACAGAUACUA: 0.526
CACAAUGGGGUAAUCAGUUUGGAUAGAUGUAAAAAGAGCCAGAUAUGUCCUUCUCCAUGGCCAUGCCCUAACUGCAAUCUGUCAGAAUCAGUCAUUUUUAAAGAAAUUCU: 0.391
GGUAGUACAAAAGGAUGUCUUUAAGGUGACAGAACUGGAAAAGAUACUCCCUGUGGGCAUUUUUAAAGAUGAUCAUUAAUCUAUAAGGAAUUUGCUAAGCUUUCUCUUGA: 0.523
UUCUUGGUAGCCCUGGUUUGCAUUGCUUUGUGUUUCCACACCCGAGGCUGUGUGGGCGGGUGCAUGUGCACCGUGGAGUGCACACAAGGGGACUGUCAAUCACAGGGUUU: 1.25
UUGCUCCUAAUGAUCAAAACCCCAAUUGCAACCAUGUGGCAAGUGGCCAGCUGAGCCCAGGUUACUUGGUACCCACUCUGCCUUGAGCCUUCCUUCCCCCAGGGCCUAUU: 0.863
UAUAUUUGCAUACCCUUUUAUUUCCAAAACAAAAUGAGCUCUUUUCCCUUGAGACAAUAUCAUUCCCAUAUACCUCUCAUUGUCUUGGCUUUCUUAUCCAAGACGAGAAG: 1.1
AGAUAUUUGGGGGUUAUUCGGGUUAUGGCCCAUUUAUUUCCCUCUUCCCCCUGAAUUGACCAGUAGCAGCUCCAGCCCCAUUUCACAAAAGUGAGUUUGGCCAGGAGGAA: 0.317
CUAGAUUUAGAUGCUCAAGAAUAAAUGUACUGAGAAGAGUUAAUAAUUGUUUAUUCCCAAAUUGAAAUACACAAGAAAAUAUAAUUUAAGUCUGAAAUUUAACGCCUACU: 0.333
UUCAUUUUAGCUUCAAAACAAGCUGGGCACACUGUUAAAUCAUGAUUUUGCAGAACCUUUGGUUUUGGACAGUUUCAUUUUUUUGGAUUUGGGAUAGAUUACAUAGGAGU: 0.347

Series 4 — method: competition protein-binding microarray; molecule type: double-stranded DNA, one strand shown; medium: in vitro; concentration: 2 µM; with: Pho4 competitor, 0.05 µM; direction: higher = stronger binding; measurement: fluorescence intensity; constant ends, left off below: … GTCTTGATTCGCTTGACGCTGCTG
Target: Centromere-binding protein 1, full length, His-tagged (CBF1, Saccharomyces cerevisiae, UniProt P17106, residues 1-351)
UniProt P17106, sequence (whole entry, looked up): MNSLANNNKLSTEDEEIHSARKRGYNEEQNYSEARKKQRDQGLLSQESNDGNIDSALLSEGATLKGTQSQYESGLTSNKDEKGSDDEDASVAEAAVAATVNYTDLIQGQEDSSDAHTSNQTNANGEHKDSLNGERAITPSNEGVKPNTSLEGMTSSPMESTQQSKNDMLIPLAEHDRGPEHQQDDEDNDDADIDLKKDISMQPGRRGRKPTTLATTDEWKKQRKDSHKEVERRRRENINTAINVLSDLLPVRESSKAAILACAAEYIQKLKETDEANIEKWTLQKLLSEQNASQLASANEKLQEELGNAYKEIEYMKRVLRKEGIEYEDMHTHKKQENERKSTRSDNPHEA
Notes: whole 60-bp probe, lowest competitor level
AAAGCGGTAATTTGAGAAGTGGGTGCAGATATCTAT: 76.1 a.u.
GTCTTGTCTCATTTGCACGTGTTTTTCCCCACTTCA: 1620 a.u.
ATCCTCATGTTCTTCCACGTGAAGATCGCCCGCTTC: 431 a.u.
GATGGCCATTGATAACGCGTGAAATTTTCCAGGGTG: 77.2 a.u.
TCAATATAATTCTGTCATGCTTGGCCTTACTGCTTA: 95.7 a.u.
AAATTACTAAGTTGGGTTGTGGGTGACGCCGTATGA: 52.3 a.u.
AGTAGAAACAATAGTATCGTGATGGGATCCCTCTTG: 119 a.u.
GGTGGAAATAACAAAAGCGTGACGGCAAAGAAGCAA: 308 a.u.
AAATTACTAAGTTGCCGGGTGGGTGACGCCGTATGA: 64.6 a.u.
CTTCTGTAAATTTGGAAAGTGGGTGGACGCGCCCCG: 69.2 a.u.
GTCTTGTCTCATTGATATGTGGGTGTCCCCACTTCA: 87.3 a.u.
AACTGGCATAATCGAGTTGTGACGAACAAACTTAAC: 80.1 a.u.
CTAACGAAGGTTTGTGAAGTGGGTGACAAGCCAAGT: 80.4 a.u.
ATCGAGGGAAAAAAAGTTGTGACGGAGGGGAAGGTT: 67.6 a.u.
TAGTTGTGCCTCGACCACGTGAGAAGGCGGTATTCA: 1130 a.u.
AAATTACTAAGTTGATTTGTGGGTGACGCCGTATGA: 71.7 a.u.
CTTCTGTAAATTTGACCGGTGGGTGGACGCGCCCCG: 78.6 a.u.
TCTTTTTCGACCGGCCACGTGAGAAGACATACAGTT: 1090 a.u.
GCACCTCATCTAGCGGAGGTGCAGGGATGTACCAAC: 54.5 a.u.
CATACCATCTTTAGCGACGTGTGGAAGACCCGATTC: 64.7 a.u.
CGTCCTAGTGATTGTGGCGTGGGTGCCATGAGGAAG: 78.3 a.u.
TGTTAAAGTTGTATCCATGTGTGCCCATAATGCCGA: 96.5 a.u.

For quick reference, copied from above (series 4):
GTCTTGTCTCATTGATATGTGGGTGTCCCCACTTCA: 87.3 a.u.
ATCGAGGGAAAAAAAGTTGTGACGGAGGGGAAGGTT: 67.6 a.u.
AAATTACTAAGTTGGGTTGTGGGTGACGCCGTATGA: 52.3 a.u.
TCAATATAATTCTGTCATGCTTGGCCTTACTGCTTA: 95.7 a.u.
AAAGCGGTAATTTGAGAAGTGGGTGCAGATATCTAT: 76.1 a.u.
CTTCTGTAAATTTGGAAAGTGGGTGGACGCGCCCCG: 69.2 a.u.
TCTTTTTCGACCGGCCACGTGAGAAGACATACAGTT: 1090 a.u.
